Assay results collected from several papers.
Each line is one published result; not all experiments were run side by side. Numbers after ± are the reported error.

`Cc1cccc(Cn2nc(C3CC3)c3c(NC(=O)c4cnc5cc(OCCN6CCN(C)CC6)ccn45)cccc32)n1` has a Tmax of 2 h (human patients Overall, plasma; oral, 300 mg, cycle 2 day 1, median).
The Tmax of `Nc1ccc(-c2nc([C@H]3CCc4cc(-c5cc(Cl)ccc5-n5cnnn5)cc(=O)n43)c(F)[nH]2)c(F)n1` is reported as 4 to 6 h (human, plasma; oral, day 14, multiple dosing, final dose).
`COc1cc2ncnc(Nc3ccc(F)c(Cl)c3)c2cc1OCCCN1CCOCC1` gave a Tmax of 4 h (human, plasma; oral, 250 mg, median).
The Tmax of `COc1ccc2nc([S@@+]([O-])Cc3ncc(C)c(OC)c3C)[nH]c2c1` is reported as 1.44 ± 1.21 h (HPLC; human CYP2C19 intermediate metabolizers, plasma; oral, 40 mg/day, day 5, pantoprazole).
`C[C@]12CCC(=O)C=C1[C@@H]1C[C@@H]1[C@H]1[C@@H]3[C@@H]4C[C@@H]4[C@@]4(CCC(=O)O4)[C@@]3(C)CC[C@@H]12` gave a Tmax of 3 h (human female; day 1, oral contraceptive alone, median).
With `CO[C@H]1C[C@@H]2CC[C@@H](C)[C@@](O)(O2)C(=O)C(=O)N2CCCC[C@H]2C(=O)O[C@H]([C@H](C)C[C@@H]2CC[C@@H](OCCO)[C@H](OC)C2)CC(=O)[C@H](C)/C=C(\C)[C@@H](O)[C@@H](OC)C(=O)[C@H](C)C[C@H](C)/C=C/C=C/C=C/1C` the Tmax was 3 h (healthy adult human, whole blood; 0.75 mg single dose, median, with: ritonavir-containing 3D regimen).
For `C[C@H]1C[C@@H]2[C@H]([C@@H](O)C[C@@]3(C)[C@H]2CC[C@]3(O)C(=O)CO)[C@@]2(C)C=CC(=O)C=C12`, the Tmax was 2 h (item: total compound; human, plasma; oral, once daily, 32 mg, day 4, median).
`CC(C)c1nc(CN(C)C(=O)N[C@H](C(=O)N[C@@H](Cc2ccccc2)C[C@H](O)[C@H](Cc2ccccc2)NC(=O)OCc2cncs2)C(C)C)cs1` gave a Tmax of 4 h (human, HIV+/HCV+, plasma; oral, total drug, steady state, median, with: lopinavir/ritonavir twice daily).
For `COC(=O)c1ccc2c(c1)NC(=O)/C2=C(\Nc1ccc(N(C)C(=O)CN2CCN(C)CC2)cc1)c1ccccc1`, the Tmax was 3.48 h (human, mild liver impairment, plasma; oral, 150 mg twice daily, steady state).
`C=CC(=O)N(C)CCOc1c(N)ncnc1-c1cc(F)cc(NC(=O)c2ccc(C3CC3)cc2F)c1C` has a Tmax of 0.767 h (healthy humans, fasted, whole blood; oral, 60 mg single dose, median).
For `CC(O)c1cc(C(=O)N[C@@H](C)Cn2ccc(-c3ccc(C#N)c(Cl)c3)n2)[nH]n1` (some centres unmarked), the Tmax was ~6 h (human, male, plasma; oral, 600 mg, day 1, with food, single dose).
`CCCC[C@H](NC(C)=O)C(=O)N[C@H]1CC(=O)NCCCC[C@@H](C(=O)O)NC(=O)[C@H](Cc2c[nH]c3ccccc23)NC(=O)[C@H](CCCN=C(N)N)NC(=O)[C@@H](Cc2ccccc2)NC(=O)[C@H](Cc2cnc[nH]2)NC1=O` gave a Tmax of 0.52 h (human, plasma; subcutaneous, 0.75 mg, second dose).
For `O=C(Cc1cccc(OC(F)(F)F)c1)Nc1ccc(CCCCc2nnc(NC(=O)Cc3ccccn3)s2)nn1`, the Tmax was 4 h (human; oral, 600 mg twice daily, fed, steady state, cycle 1 day 15).
With `Nc1ncc(-c2cnn(CCO)c2)c2scc(-c3ccc(NC(=O)Nc4cccc(F)c4)cc3)c12` the Tmax was ~3 h (human patients, plasma; oral, all doses pooled, first dose, single dose).
`Nc1nc2[nH]cc(CCc3ccc(C(=O)N[C@@H](CCC(=O)O)C(=O)O)cc3)c2c(=O)[nH]1` has a Tmax of 0.17 h (human cancer patients, plasma; intravenous, dose not given, cycle 2 day 1, with: regorafenib for 21 days).
With `Cc1ccc(NC(=O)c2ccc(CN3CCN(C)CC3)cc2)cc1Nc1nccc(-c2cncc(-c3oncc3C)c2)n1` the Tmax was 5.97 h (older healthy human adults, plasma; oral, 25.0 mg single dose, fed, mean).
`NC1(c2ccc(-c3nc4ccn5c(=O)[nH]nc5c4cc3-c3ccccc3)cc2)CCC1` gave a Tmax of 4.75 h (human; oral, 90 mg, expansion, reduced dose, with: dinaciclib 9 mg/m^2).
The Tmax of `CCOC(=O)C1=C[C@@H](OC(CC)CC)[C@H](NC(C)=O)[C@@H](N)C1` is reported as 2.65 ± 1.34 h (healthy Indian human, plasma; oral, 75 mg single, Tamiflu reference capsule fed).
`CS(=O)(=O)n1cc2c(n1)CN([C@H]1CO[C@H](c3cc(F)ccc3F)[C@@H](N)C1)C2` gave a Tmax of 2.5 h (healthy male human, plasma; oral, 100 mg once weekly, day 1, fasted, median).
With `CC(C)NC[C@@H](C(=O)N1CCN(c2ncnc3c2[C@H](C)C[C@H]3O)CC1)c1ccc(Cl)cc1` the Tmax was 1 h (human, Healthy hepatic function (Child-Pugh), plasma; oral, 100 mg single dose, median).
`COCCCCn1c(C(=O)N(CC(C)C)[C@@H]2CNC[C@H](C(=O)N3CCOCC3)C2)nc2ccccc21` has a Tmax of 2 h (non-elderly human, plasma; oral, 80 mg once daily, day 7).
With `O=c1[nH]c(=O)c(Cc2cccc(C(F)(F)F)c2)c([C@H]2CC[C@H](c3ccccc3)CC2)[nH]1` the Tmax was 4 h (human, fasted, plasma; oral, 900 mg single dose, median).
`CCOc1ccc(Cc2cc([C@@H]3S[C@H](CO)[C@@H](O)[C@H](O)[C@H]3O)c(OC)cc2C)cc1` gave a Tmax of 0.563 ± 0.177 h (human, plasma; oral, 10 mg/day, day 7, multiple dose before breakfast).
For `C[C@H]1CNCCCN1S(=O)(=O)c1cccc2cncc(F)c12`, the Tmax was 0.083 h (human, male, plasma; ocular instillation, 1 drop per eye twice daily, day 8, median, with: brimonidine fixed-dose combination).
With `COc1cnc(C(=O)Nc2ccc(F)c([C@]34CN(c5ncc(F)cn5)C[C@H]3CSC(N)=N4)c2)cn1` the Tmax was ~6 h (healthy human subjects, CSF; single dose).
With `CNCc1ccc(-c2[nH]c3cc(F)cc4c3c2CCNC4=O)cc1` the Tmax was 5.95 h (human, plasma; oral, 300 mg, fed, high-fat meal, median).
With `C=CC(=O)N1CCC([C@@H]2CCNc3c(C(N)=O)c(-c4ccc(Oc5ccccc5)cc4)nn32)CC1` the Tmax was 2.8 h (human; oral, 480 mg single dose, median).
`C=C(C)[C@@H]1CC[C@]2(NCCN3CCS(=O)(=O)CC3)CC[C@]3(C)[C@H](CC[C@@H]4[C@@]5(C)CC=C(C6=CC[C@@](CF)(C(=O)O)CC6)C(C)(C)[C@@H]5CC[C@]43C)[C@@H]12` has a Tmax of 4 h (human; oral, 100 mg once daily, day 14, multiple ascending dose).
`COc1ccnc(C[S+]([O-])c2nc3ccc(OC(F)F)cc3[nH]2)c1OC` (centres unmarked) gave a Tmax of 2 h (HPLC; human CYP2C19 ultra-rapid metabolizers, plasma; oral, 40 mg/day, day 1, esomeprazole).
`CN1C(=O)[C@@H](NC(=O)c2nnc(Cc3ccccc3)[nH]2)COc2ccccc21` gave a Tmax of 2 h (human male, plasma; oral, 60 mg twice daily, day 1).
For `COC(=O)[C@H](c1ccccc1Cl)N1CCC(S)/C(=C\C(=O)O)C1` (some centres unmarked), the Tmax was 1 h (human patients, CYP3A4 wt/wt, plasma; oral, 75 mg clopidogrel daily, day 7, median).
`CCCNS(=O)(=O)Nc1ncnc(OCCOc2ncc(Br)cn2)c1-c1ccc(Br)cc1` has a Tmax of ≤ 48 h (healthy male humans, plasma; 300 mg, some subjects).
The Tmax of `C#C[C@]1(CO)O[C@@H](n2cnc3c(N)nc(F)nc32)C[C@@H]1O` is reported as 1 h (human, plasma; oral, 30 mg once weekly, week 3).
With `CCCOc1ccc([C@H]2CNC(=O)N2c2ccc3[nH]cnc3c2)cc1` the Tmax was 0.5 h (human, elderly, fasted, plasma; oral, 500 mg twice daily, tablet, day 11, median).
`CCOc1c([C@H](C)n2nc(C)c3c(N)ncnc32)cc(Cl)c(F)c1[C@@H]1CNC(=O)C1` has a Tmax of ≤ 1 h (human; oral, 20 mg, alone or with rifampin).
The Tmax of `Cn1ncc(Cl)c1-c1cc(C(=O)N[C@H](CN)Cc2ccc(F)c(F)c2)oc1Cl` is reported as 3 to 4 h (human patients, plasma; oral, 10 mg, single dose, fasting).
With `COC(=O)c1ccc2c(c1)NC(=O)/C2=C(\Nc1ccc(N(C)C(=O)CN2CCN(C)CC2)cc1)c1ccccc1` the Tmax was 4 h (healthy human controls matched to Child-Pugh A, plasma; oral, 100 mg single dose, median).
`Cc1cnc(N2CC3(CCOCC3)C2)c(C(=O)Nc2ccc(C(=O)N3CCc4cc(C(=O)Nc5c(C)cccc5F)sc4-c4ccccc43)cc2)c1` has a Tmax of 0.5 h (human, plasma; inhaled nebulised, 5 mg twice daily repeated, median).

Repeated from above:
`CC(C)c1nc(CN(C)C(=O)N[C@H](C(=O)N[C@@H](Cc2ccccc2)C[C@H](O)[C@H](Cc2ccccc2)NC(=O)OCc2cncs2)C(C)C)cs1` gave a Tmax of 4 h (human, HIV+/HCV+, plasma; oral, total drug, steady state, median, with: lopinavir/ritonavir twice daily).
For `COC(=O)c1ccc2c(c1)NC(=O)/C2=C(\Nc1ccc(N(C)C(=O)CN2CCN(C)CC2)cc1)c1ccccc1`, the Tmax was 3.48 h (human, mild liver impairment, plasma; oral, 150 mg twice daily, steady state).
